Results pooled from the literature.
“And” joins repeats or separate records; there may be more than shown. ± marks the error that the study gave. Converted amounts (≈) assume the structure as drawn.

SMILES | target or system | assay | system | setting | how to read | quantity | value
[O-]c1ccnc(-c2cc([O-])ccn2)c1.[Ru+2].c1ccc(-c2ccnc3c2ccc2c(-c4ccccc4)ccnc23)cc1.c1ccc(-c2ccnc3c2ccc2c(-c4ccccc4)ccnc23)cc1 |  |  | acetonitrile | basic deprotonated form |  | singlet oxygen quantum yield | 0.19
COCC1CN(C2CCN(c3cc(OC)c(Nc4ncc(Br)c(Nc5ccc6c(c5P(C)(C)=O)OCCO6)n4)cc3C)CC2)C1 |  |  | EGFR-mutant NSCLC patients, plasma | oral, 60 mg single dose, geometric mean |  | AUC(0-inf) | 13400 ng·h/mL
COc1ccc(C(N)=O)cn1 |  |  | Han Wistar rats, male, plasma | oral, 30 mg/kg, 8.00 h |  | concentration at time | 114 nM
O=C(Nc1ccccc1)C12CC3CC(C1)CC(n1cnc([N+](=O)[O-])n1)(C3)C2 | Trypanosoma cruzi | reporter mRNA translation, inhibitor, refers to: Renilla luciferase mRNA | cell-free extract | concentration not given, test 1 | baseline: positive over negative control | translation activity | 97.2% and 106%
CC(C)C[C@H](NC(=O)[C@H](CCCCN)NC(=O)C1CCCC=CCCC(NC(=O)[C@H](CCCCN)NC(=O)[C@@H](N)CC(C)C)C(=O)N[C@@H](CCCCN)C(=O)NC2CCC=CCCCC(NC(=O)[C@H](CCCCN)NC(=O)CNC(=O)[C@H]3CCCN3C(=O)[C@H](CCCCN)NC2=O)C(=O)N[C@@H](CCCCN)C(=O)N1)C(N)=O (stereo partly drawn) |  | RP-HPLC C18 |  | hydrophobicity |  | retention time | 14.2 min
O=C(Nc1cnccc1-c1ccc([18F])nc1)c1ccnc(NC(=O)C2CC2)c1 |  |  | FVB/NJ mouse, both sexes, liver | intravenous, 25 min, added: tariquidar 15 mg/kg iv |  | SUV | 8.86
CC(C)Cc1ccc(CN2CCCC(NC(=O)c3nn(C)c(=O)c4ccccc34)C2)cc1 (stereo not drawn) | Trypanosoma cruzi | reporter mRNA translation, inhibitor, refers to: Renilla luciferase mRNA | cell-free extract | concentration not given, test 1 | baseline: positive over negative control | translation activity | 103% and 113%
CCN(CC)CC#CCNc1ccnc2cc(Cl)ccc12 | Salmonella typhimurium | mini-Ames test | TA98 | 62.5 µg/well, with rat liver S9 |  | mean revertants | 10 revertants/well
CCCCN1C(=O)c2cccc3c(NCCCCCCN4CCOCC4)ccc(c23)C1=O |  |  | methanol |  |  | fluorescence quantum yield | 0.73
[2H]C([2H])(N)C([2H])([2H])NC(=O)c1cc(C2CC2)nc2c1cnn2C(C)C |  | metabolic stability | mouse, liver microsomes |  |  | microsomal CLint | < 9.6 µL/min/mg
C/C(N)=N/C(=N\S(=O)(=O)c1ccc(C(F)(F)F)cc1)N1C[C@H](c2ccccc2)C(c2ccc(Cl)cc2)=N1 |  |  | male C57BL/6 mouse, lung | oral, 10 mg/kg |  | AUC(0-inf) | 44500 ng·h/mL
Cc1cc(-c2ccc(C(=O)[C@@H]3CCCC[C@H]3C(=O)Nc3cnn4c3C(=O)NCC4)cc2)[nH]n1 |  |  | human, urine | oral, 200 mg, 72-96 h | baseline: dose | radioactivity recovery per interval | 0.09% and 0.02% and 0.03% and 0.05%
[11CH3]N1CCC(NC(=O)c2cc(-c3c(O)cc(O)cc3Oc3ccc([N+](=O)[O-])cc3)on2)CC1 |  |  | Wistar rat, female, healthy, spleen | intravenous, 18.5 MBq, 60 min |  | SUV | 1.3 ± 0.1
CC(C)(O)c1ncc([S@](N)(=O)=NC(=O)Nc2c3c(cc4c2CCC4)CCC3)s1 |  | refers to: Cardiac disorders | healthy human volunteers | oral, dose not given, 14 days, multiple dose, all active arms |  | subjects with adverse events | 3%
C=CC(=O)Nc1cc(Nc2nccc(-c3c[nH]c4ccccc34)n2)c(OC)cc1N(C)CCN(C)C |  | storage stability | human plasma | 5 h, on ice, LLOQ level |  | recovery | 93.4%
CCCC[C@H](NC(=O)CNC(=O)CNC(=O)[C@H](CCCCNC(=O)[C@H](CC(=O)O)NC(=O)C(C)c1ccc(CC(C)C)cc1)NC(=O)CN1CCN(CC(=O)O)CCN(CC(=O)O)CCN(CC(=O)O)CC1)C(=O)N[C@H]1CC(=O)NCCCC[C@@H](C(N)=O)NC(=O)[C@H](Cc2c[nH]c3ccccc23)NC(=O)[C@H](CCCNC(=N)N)NC(=O)[C@@H](Cc2ccccc2)NC(=O)[C@H](Cc2c[nH]cn2)NC1=O (stereo partly drawn) [lutetium-177 labelled] |  |  | C57 mice, tumour | intravenous, 0.037 MBq, 24 h | baseline: lung | tumour-to-tissue ratio | 28.4
Cc1c(Cc2ccc(Cl)c(O[C@@H](C)C(=O)O)c2)c2ccc(C(=O)N[C@@H](C)c3ccc(C(C)(C)C)cc3)cc2n1C |  |  | mouse liver microsomes | 1 µM, added: microsomes 1 mg/mL |  | half-life | 42 min
O=S1(=O)CC2CCCCC2CS1 (stereo not drawn) |  | phase solubility, NMR | water | 25 °C, added: hydroxypropyl-β-cyclodextrin 111 mM |  | solubility | 13.6 mM (≈ 2810 µg/mL)
